Published values of several laboratories.
Each numbered part is a random draw from the data of one study; scales do not carry over between parts. Values joined by “and” are separate records of one study, mostly repeats; a detail may differ.

Set 1
Cell line: Gaucher fibroblasts L444P/L444P
Method: 4-MUG hydrolysis, cell lysate
Tested at: 0.1 µM
Baseline: DMSO
Quantity: GCase activity
Ic1ccc(Nc2nc(NCCN3CCOCC3)nc(N3CCCC3)n2)cc1: 98.7% and 91.3% and 107% and 102% and 98.6%
CCOc1ccc2nc(Sc3nc(NCCN4CCOCC4)nc(Nc4ccc(I)cc4)n3)sc2c1: 103% and 99.8% and 82.3% and 105%
Ic1ccc(Nc2nc(N3CCOCC3)nc(N3CCOCC3)n2)cc1: 103% and 102% and 141% and 106%
CCN(CC)c1nc(NCCN2CCOCC2)nc(Nc2ccc(I)cc2)n1: 92% and 96.2% and 87.8% and 97.4%
Ic1cccc(Nc2nc(NCCN3CCOCC3)nc(N3CCOCC3)n2)c1: 102% and 100% and 97.7% and 103% and 94.7% and 95.3%
CCOc1ccc2nc(Sc3nc(Nc4ccc(OC)cc4)nc(N4CCOCC4)n3)sc2c1: 114% and 115% and 104% and 109%
CCOc1ccc2nc(Sc3nc(N4CCOCC4)nc(N4CCOCC4)n3)sc2c1: 110% and 99.8% and 89.6% and 107%
Ic1ccc(Nc2nc(NCCN3CCCCC3)nc(N3CCOCC3)n2)cc1: 96.6% and 103% and 98% and 114% and 99.3%

Set 2
Compound: CCN1/C(=C/C=C2\CCCC(/C=C/C3=[N+](CC)c4ccccc4C3(C)C)=C2NCCCCCCCCN2CCC(Nc3nc4ccccc4n3Cc3ccc(F)cc3)CC2)C(C)(C)c2ccccc21
Cell line: U-87 MG
Tested at: concentration not given
Baseline: DMSO
Quantity: log2 fold change
refers to: SPDL1 mRNA: -1.36
refers to: RWDD2A mRNA: 1.71
refers to: IGSF10 mRNA: -2.51
refers to: CCDC9B mRNA: -1.13
refers to: TCF19 mRNA: -2.47
refers to: CCL3 mRNA: 1.75
refers to: CTH mRNA: 1.89
refers to: ARID5B mRNA: -1.12
refers to: PAQR8 mRNA: -0.995
refers to: USP3 mRNA: 1.07
refers to: NFKB2 mRNA: 1.2
refers to: SUPT20HL1 mRNA: -4.52
refers to: GPR183 mRNA: -2.9
refers to: GALNT2 mRNA: -1.14
refers to: ANKRD52 mRNA: -0.816
refers to: PIGA mRNA: 1.78

Set 3
SMILES: Cc1ccc(O)c(C)c1-c1cnc2[nH]c(-c3cnc(N4CCC5(CC4)CC(N4CCN(c6ccc(N[C@H]7CCC(=O)NC7=O)cc6F)CC4)CO5)nc3)cc2c1C#N (single isomer, unassigned)
Quantity: inhibition
PKMYT1: Membrane-associated tyrosine- and threonine-specific cdc2-inhibitory kinase (PKMYT1, Homo sapiens, UniProt Q99640)
Sequence of UniProt Q99640 (whole entry, looked up): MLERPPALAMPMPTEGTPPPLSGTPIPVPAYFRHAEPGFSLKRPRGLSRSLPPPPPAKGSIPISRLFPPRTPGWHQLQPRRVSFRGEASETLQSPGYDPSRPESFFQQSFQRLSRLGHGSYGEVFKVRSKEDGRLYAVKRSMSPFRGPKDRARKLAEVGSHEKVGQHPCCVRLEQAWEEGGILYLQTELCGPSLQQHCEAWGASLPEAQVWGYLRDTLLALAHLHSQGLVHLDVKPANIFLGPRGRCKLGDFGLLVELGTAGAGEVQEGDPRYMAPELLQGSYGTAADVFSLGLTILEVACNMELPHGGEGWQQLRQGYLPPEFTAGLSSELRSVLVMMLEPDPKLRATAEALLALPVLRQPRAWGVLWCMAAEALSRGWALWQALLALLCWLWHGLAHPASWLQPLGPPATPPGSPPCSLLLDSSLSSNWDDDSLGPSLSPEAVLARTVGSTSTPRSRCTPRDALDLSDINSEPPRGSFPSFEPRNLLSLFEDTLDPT
PKMYT1; enzyme activity, inhibitor; 3.333 µM: 99.1%
RAF proto-oncogene serine/threonine-protein kinase (RAF1, Homo sapiens, UniProt P04049, Y340D/Y341D); kinase activity, inhibitor, ADP-Glo; 10 µM: 66.7%
RKO; cell proliferation; 1.524 nM: 0.41% and 5.88%
NCI-H1568; cell proliferation; 370.37 nM: 14.2% and 17.4%
HCC1569; automated capillary immunoblot, refers to: CDK1 phospho-Thr14; 100 nM, 4 h: > 50%
PKMYT1; enzyme activity, inhibitor; 0.1235 µM: 98.1%
PKMYT1; enzyme activity, inhibitor; 4.12 nM: 32.6%
HuCCT-1; cell proliferation; 41.15 nM: 8.64% and 10.6% and 4.55%
NCI-H1648; cell proliferation; 4.572 nM: -15.2% and -12.1% and -5.6%

Set 4
Target: E3 ubiquitin-protein ligase NEDD4 (Homo sapiens, UniProt P46934)
Observed: enzyme activity
Mode: inhibitor
Method: TR-FRET
Quantity: IC50
Residues (P46934 938-1319, limits assumed): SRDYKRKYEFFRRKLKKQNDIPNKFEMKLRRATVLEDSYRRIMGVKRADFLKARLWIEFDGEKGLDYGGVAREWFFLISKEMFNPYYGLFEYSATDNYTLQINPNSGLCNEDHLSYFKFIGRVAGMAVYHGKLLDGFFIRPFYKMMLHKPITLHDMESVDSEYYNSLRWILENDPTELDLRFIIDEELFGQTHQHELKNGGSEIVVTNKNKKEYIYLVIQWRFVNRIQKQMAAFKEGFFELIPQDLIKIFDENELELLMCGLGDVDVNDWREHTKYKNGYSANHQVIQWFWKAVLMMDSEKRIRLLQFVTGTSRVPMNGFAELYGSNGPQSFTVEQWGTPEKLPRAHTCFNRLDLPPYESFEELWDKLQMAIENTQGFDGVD
CONC(=O)/C=C/CNCCCCN1c2ccccc2CCc2ccc(Cl)cc21: 1050 nM
CCOC(=O)/C=C/CNCCCCN1c2ccccc2COc2ccc(Cl)cc21: 650 nM
CCOC(=O)/C=C/CNCCCCN1c2ccccc2C(=O)N(C)c2ccc(Cl)cc21: 2120 nM

Set 5
Compound: COc1ccc2c(c1)OC(O)(C(=O)O)C(=O)N2Cc1ccccc1 (stereo not drawn)
Quantity: inhibition
Arabidopsis thaliana; root length; Col-0, seedlings; 100 µg/mL: 81%
Arabidopsis thaliana; root length; Col-0, seedlings; 3.125 µg/mL; baseline: water control: 6.89%
Eclipta prostrata; fresh weight; 150 g ai/ha, post-emergence treatment: 69.2% and 65.8% and 64.2%
Arabidopsis thaliana; hypocotyl length; Col-0, seedlings; 6.25 µg/mL: 9.18%
Arabidopsis thaliana; root length; Col-0, seedlings; 12.5 µg/mL; baseline: water control: 10.2%
Arabidopsis thaliana; hypocotyl length; Col-0; 50.0 µg/mL, 7 days, seed germination, dark: 36.6%
Alopecurus aequalis; fresh weight; 150 g ai/ha, pre-emergence treatment: 79.2% and 76.4% and 79.3%
Arabidopsis thaliana; root length; Col-0; 100 µg/mL, 7 days, seed germination, dark: 81%
Setaria viridis; fresh weight; 150 g ai/ha, pre-emergence treatment: 28.5% and 32.1% and 31.2%
Arabidopsis thaliana; root length; Col-0; 50.0 µg/mL, 7 days, seed germination, dark: 46.3%
Arabidopsis thaliana; root length; Col-0, seedlings; 6.25 µg/mL: 9.88%

Set 6
Structure (SMILES): Cc1ncsc1-c1ccc(C(CO)NC(=O)C2CC(O)CN2C(=O)C(C(C)C)n2cc(-c3ccc(COc4c(-c5c(C)c(F)cc6[nH]ncc56)c(C5CC5)cc5c(N6CC7CC6CN7)nc(OC6CCOCC6)nc45)cc3)nn2)cc1 (stereo not drawn)
Route: intravenous
Quantity: concentration
mouse (PK-59 xenograft), tumor; 30 mg/kg, 72 h: 842 ng/g
male Balb/c nu/nu mouse, PK-59 xenograft, pancreas; 30 mg/kg, 24 h: 311 ng/g and 303 ng/g
male Balb/c nu/nu mouse, PK-59 xenograft, tumor; 30 mg/kg, 6 h: 1540 ng/g and 420 ng/g and 1120 ng/g
male Balb/c nu/nu mouse, PK-59 xenograft, tumor; 10 mg/kg, 2 h: 394 ng/g and 306 ng/g
mouse (PK-59 xenograft), plasma; 10 mg/kg, 144 h: 0 ng/mL
mouse, PK-59 xenograft, tumor; 10 mg/kg, 48 h: 345 ng/g and 234 ng/g
male Balb/c nu/nu mouse, PK-59 xenograft, pancreas; 10 mg/kg, 6 h: 239 ng/g and 174 ng/g
male Balb/c nu/nu mouse (PK-59 xenograft), pancreas; 10 mg/kg, 6 h: 189 ng/g

Set 7
Cell line: MDA-MB-468
Observed: cell viability
Method: CellCounting-Lite
Tested at: 0.9145 nM
Temperature: 37 °C
Reading: higher = more viable cells
Quantity: luminescence signal
CCn1cnc2c(NCc3nc4cc(F)c(F)cc4[nH]3)nc(N3CCn4ncnc4C3)nc21: 426000 a.u. and 450000 a.u. and 407000 a.u.
CCn1cnc2c(NCc3nc4cc(Cl)c(Cl)cc4[nH]3)nc(N3CCN(C(=O)CNC(C)=O)CC3)nc21: 510000 a.u. and 410000 a.u. and 416000 a.u.
CCn1cnc2c(NCc3nc4cc(Cl)c(Cl)cc4[nH]3)nc(N3CCN(S(C)(=O)=O)CC3)nc21: 580000 a.u. and 528000 a.u. and 442000 a.u.
CCn1cnc2c(NCc3nc4cc(Cl)c(Cl)cc4[nH]3)nc(N3CCN(C(=O)c4ccncc4)CC3)nc21: 354000 a.u. and 319000 a.u. and 361000 a.u.
CCn1cnc2c(NCc3nc4ccc(F)c(F)c4[nH]3)nc(N3CCn4ncnc4C3)nc21: 450000 a.u. and 480000 a.u. and 438000 a.u.
CCn1cnc2c(NCc3nc4cc(Cl)c(Cl)cc4[nH]3)nc(N3CCN(Cc4ccncc4)CC3)nc21: 481000 a.u. and 434000 a.u. and 553000 a.u.
Cn1cc(-n2cnc3c(NCc4nc5cc(Cl)c(Cl)cc5[nH]4)nc(N4CCNCC4)nc32)cn1: 483000 a.u. and 570000 a.u. and 592000 a.u.
CCn1cnc2c(NCc3nc4cc(Cl)c(Cl)cc4[nH]3)nc(N3CCN(C(=O)[C@H](C)NC(C)=O)CC3)nc21: 489000 a.u. and 507000 a.u. and 474000 a.u.
CCn1cnc2c(NCc3nc4cc(Cl)c(Cl)cc4[nH]3)nc(N3CCn4ncnc4C3)nc21: 450000 a.u. and 475000 a.u. and 563000 a.u.

Set 8
Compound: C[C@@H]1CN(c2ccc(-c3cc(C(=O)NCCOCCOCCOCCOCCNC(=O)Cn4cc(-c5[nH]cc(C(=O)N[C@@H](CC(N)=O)c6ccc(F)c(Cl)c6)c5-c5ccc(Cl)cc5F)cn4)ccc3F)cc2NC(=O)c2c[nH]c(=O)cc2C(F)(F)F)C[C@H](C)N1C
Observed: thermal unfolding
Method: differential scanning fluorimetry
Tested at: 5.5 µM
Reading: higher = more unfolded
Quantity: SYPRO Orange fluorescence
DCAF1: DDB1- and CUL4-associated factor 1 (DCAF1, Homo sapiens, UniProt Q9Y4B6)
Sequence of UniProt Q9Y4B6 (whole entry, looked up): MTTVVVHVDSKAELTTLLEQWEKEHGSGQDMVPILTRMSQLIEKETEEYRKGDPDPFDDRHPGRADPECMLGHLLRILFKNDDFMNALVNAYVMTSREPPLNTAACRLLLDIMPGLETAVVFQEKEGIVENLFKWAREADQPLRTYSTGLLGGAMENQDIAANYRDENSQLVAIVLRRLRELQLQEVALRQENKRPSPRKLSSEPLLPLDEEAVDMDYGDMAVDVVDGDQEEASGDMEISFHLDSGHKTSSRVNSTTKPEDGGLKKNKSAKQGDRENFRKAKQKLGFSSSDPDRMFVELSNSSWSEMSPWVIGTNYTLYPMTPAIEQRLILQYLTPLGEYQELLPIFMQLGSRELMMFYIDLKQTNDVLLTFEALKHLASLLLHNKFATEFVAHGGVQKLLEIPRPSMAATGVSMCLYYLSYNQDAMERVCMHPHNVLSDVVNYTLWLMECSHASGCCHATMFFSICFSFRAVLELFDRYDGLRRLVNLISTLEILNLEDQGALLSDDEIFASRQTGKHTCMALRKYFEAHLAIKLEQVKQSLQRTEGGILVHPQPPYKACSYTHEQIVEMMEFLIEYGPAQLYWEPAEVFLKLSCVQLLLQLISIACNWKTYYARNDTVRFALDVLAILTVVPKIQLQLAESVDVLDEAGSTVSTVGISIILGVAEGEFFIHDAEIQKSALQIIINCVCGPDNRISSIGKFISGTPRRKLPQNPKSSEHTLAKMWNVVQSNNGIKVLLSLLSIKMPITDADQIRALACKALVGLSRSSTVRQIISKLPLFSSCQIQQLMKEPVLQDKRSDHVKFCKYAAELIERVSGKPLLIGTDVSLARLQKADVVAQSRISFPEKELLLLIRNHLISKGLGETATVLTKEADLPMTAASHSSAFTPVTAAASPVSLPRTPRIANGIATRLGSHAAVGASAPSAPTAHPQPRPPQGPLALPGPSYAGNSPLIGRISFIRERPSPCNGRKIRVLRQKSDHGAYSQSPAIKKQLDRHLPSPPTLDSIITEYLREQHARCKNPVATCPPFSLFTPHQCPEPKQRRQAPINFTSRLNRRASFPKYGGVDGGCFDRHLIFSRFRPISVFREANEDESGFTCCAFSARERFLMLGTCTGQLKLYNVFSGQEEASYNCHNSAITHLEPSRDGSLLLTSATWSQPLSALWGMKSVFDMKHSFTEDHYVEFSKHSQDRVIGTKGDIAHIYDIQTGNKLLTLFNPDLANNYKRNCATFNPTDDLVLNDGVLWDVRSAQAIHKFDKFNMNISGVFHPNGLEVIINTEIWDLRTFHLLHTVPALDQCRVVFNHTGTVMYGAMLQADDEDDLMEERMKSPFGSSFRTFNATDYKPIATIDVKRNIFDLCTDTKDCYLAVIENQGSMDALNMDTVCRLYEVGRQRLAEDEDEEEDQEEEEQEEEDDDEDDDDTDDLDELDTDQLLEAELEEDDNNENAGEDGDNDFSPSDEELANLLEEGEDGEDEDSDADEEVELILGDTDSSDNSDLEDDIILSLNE
WDR5: WD repeat-containing protein 5 (WDR5, Homo sapiens, UniProt P61964)
DCAF1; 51 °C: 15200 a.u.
WDR5; 76.81 °C: 14400 a.u.
WDR5; 55.01 °C: 13600 a.u.
WDR5; 61.01 °C: 9840 a.u.
WDR5; 73.21 °C: 8570 a.u.
DCAF1; 45.2 °C: 12200 a.u.
WDR5; 84.41 °C: 37900 a.u.
DCAF1; 93.41 °C: 31600 a.u.
DCAF1; 43.8 °C: 11700 a.u.
WDR5; 72.61 °C: 8050 a.u.
WDR5; 53.01 °C: 14400 a.u.

Set 9
Target: Sodium-dependent neutral amino acid transporter B(0)AT1 (SLC6A19, Homo sapiens, UniProt Q695T7)
Sequence of UniProt Q695T7 (whole entry, looked up): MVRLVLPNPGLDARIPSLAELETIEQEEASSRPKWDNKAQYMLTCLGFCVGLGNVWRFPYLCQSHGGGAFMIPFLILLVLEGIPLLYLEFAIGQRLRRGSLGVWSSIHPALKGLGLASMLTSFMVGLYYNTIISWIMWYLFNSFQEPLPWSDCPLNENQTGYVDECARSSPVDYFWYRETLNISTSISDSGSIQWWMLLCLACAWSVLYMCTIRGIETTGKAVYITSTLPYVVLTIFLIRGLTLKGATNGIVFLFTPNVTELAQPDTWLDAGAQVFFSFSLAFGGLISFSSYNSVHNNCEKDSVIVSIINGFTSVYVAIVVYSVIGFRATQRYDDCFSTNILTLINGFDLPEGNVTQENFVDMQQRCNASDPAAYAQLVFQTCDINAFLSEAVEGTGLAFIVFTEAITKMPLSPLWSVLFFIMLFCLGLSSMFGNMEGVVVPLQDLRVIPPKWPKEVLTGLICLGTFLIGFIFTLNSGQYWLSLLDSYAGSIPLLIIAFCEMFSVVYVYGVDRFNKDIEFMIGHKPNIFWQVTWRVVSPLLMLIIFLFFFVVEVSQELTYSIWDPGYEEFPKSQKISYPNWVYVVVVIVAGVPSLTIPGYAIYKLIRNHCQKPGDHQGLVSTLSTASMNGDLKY
Observed: membrane potential
Method: FLIPR membrane potential
Cell line: CHO-BC cells
Tested at: concentration not given
Setting: first screen
Baseline: uninhibited control
Quantity: normalised transport activity
Cc1cc(OCC(=O)CC(C)C)cc(C)c1Cl: 1.17 and 0.945 and 0.951 and 0.941 and 1.09
CC(C)NC(=O)COc1ccc(Cl)cc1: 0.644 and 0.73 and 0.553 and 0.679 and 0.648
Cc1cc(Cl)ccc1OCC(=O)NC(C)C: 0.78 and 0.952 and 0.919 and 0.832 and 0.889
CCCCNC(=O)COc1cc(C)c(Cl)c(C)c1: 1 and 1.14 and 1.03 and 0.965 and 1.05
CNC(=O)COc1cc(C)c(Cl)c(C)c1: 0.746 and 0.704 and 0.748 and 0.74
Cc1cc(OC(C)(C)C(=O)NC(C)C)cc(C)c1Cl: 0.998 and 1.19 and 1.17 and 1.08 and 0.918
CC(C)NC(=O)COc1ccc(Br)cc1: 0.434 and 0.603 and 0.494 and 0.562
Cc1cc(OCC(=O)OC(C)C)cc(C)c1Cl: 1.2 and 0.935 and 1.02 and 0.898 and 1.11
Cc1cc(OCC(=O)Nc2ccccc2)cc(C)c1Cl: 1.09 and 1.13 and 0.993 and 0.985 and 1.08

For quick reference, copied from above (set 2):
refers to: GALNT2 mRNA: -1.14
refers to: ARID5B mRNA: -1.12
refers to: USP3 mRNA: 1.07
refers to: SUPT20HL1 mRNA: -4.52
refers to: NFKB2 mRNA: 1.2
